Results from different studies.
A part holds a random share of what one study measured. Substitutions count along the parent as printed.

Study 1 — technique: RNA Bind-n-Seq; form: RNA; medium: in vitro; tested at: 365 nM; baseline: no-protein control; direction: higher = stronger binding
Target: RNA binding protein fox-1 homolog 2, RRM domain, GST-SBP tag (RBFOX2, Homo sapiens, UniProt O43251-10, residues 100-194)
Setting: natural RNA segment, single round, ends assumed
Shared flanks, not repeated: GGGAGUUCUACAGUCCGACGAUC … UGGAAUUCUCGGGUGCCAA
Residues (chain): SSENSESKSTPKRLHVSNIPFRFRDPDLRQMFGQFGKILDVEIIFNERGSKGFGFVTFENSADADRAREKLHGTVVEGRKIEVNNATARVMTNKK
Oligonucleotide | RBNS enrichment (R)
UUGGACUGUUGCUUCUUUGCCUGUUCCUGCUUUCUCUUUCUGUCUGGAUAGUCAGGAAAAGAUUUAAUGUUUAAUAUUUAAACAAAAUAUUUAAUGUCUAUACAGUAAAA | 0.571
UUUUAAUAUUUGUGUUAAAGUAGACAUAGCUGAACUCACAUGGAAUCCUGGAGUUUUGUUAUCAGCAGCUUUGCAGUUUGGGAAACAAAGAAACCAAAGCUGAGUGUUUU | 0.352
CCGGGCAAAUGACCCUGCGAAGCCACGGUGCAGCGCCCCCUGCUGGCGAGCAGCGGGCAGACCUCCAAGGACAGCCUCUAGCUGAGGUCUCAGUCACAUGAAGUGUGACA | 0.226
GUUUGAAUCUGAAAUUUAACACUUAUUUAUGUAAAACACUUUAUUUAAGAUAUUUUCUAAUGAUUUUAAUUUUAGAGAGUACCUUUUCAUUCUGUGUGUUACAGAGAAGU | 0.54
GGAGACAUGAGAGGGCAGAAUCCUGCCCCCAGCCCUGGGCUGCUUUCGGGGGUCGGGGGAGGGCUCUUCAGAUGCCUCCAUAGGACCAAGUCCCCAUCAUUGCCGGGAGU | 0.824
CAAAUCUGUGGAUAUUCCAUUUGUAGGACCAAGUCGACAUGCCCAUCCUGACAUUGUAUGCUACGAGAACUCUUCUGAUGAUGGAAUUUCGAUUAAAGUGCACUGAAAGA | 0.77
UUUUAUAUCUUUGAAUUAUGUGAUUAGAUAUUAAUUUAAUGAUAAAACCACUCUGAAAGCUCUUCUCCUUCUGGGUGUUUGAGGUCUGGCUGGGGGGCAAAAGUGGAUGG | 0.518
UAAAUAUUUAAGUCACAUACAUGGUAAAGAUCUAAGUUUCAUUUUCCACAUGGAUGACCAGGAACCUGGUCUUGUUGGAGCUGGCAUAGGAGGUUCUACUGUCUUGUCGU | 3.89

Study 2 — target: CCNE2, cyclin fold, Cln2 fusion (human); technique: yeast growth competition, sequencing; medium: yeast; setting: strong parent motif; baseline: not given; direction: higher = stronger binding
Parent: RBL1 docking peptide (human); GSAKRRLFGEDPP
Variant | normalised enrichment score
F8S | 0.0906
F8W | 1.41
G1K | 4.67
G1I | 4.88
F8T | 0.197
K4E | -0.274
S2A | 4.09
L7E | -0.438
D11V | 3.84
L7P | 0.788
R5F | 0.199
R6L | 0.71
S2W | 1.46
R6G | -0.197
R5K F8L | 0.0644
P12V | 3.98
A3I | 1.69
F8V | 0.676
A3H | 4.12
F8K | 0.935
E10N | 4.2
P12S | 4.25
R6D | -0.419
R5D | -0.211
F8M | 0.585

Study 3 — technique: DHFR PCA, deep sequencing; medium: yeast; together with: (+)-ABA 710 µM; baseline: wild-type fitted maximum; direction: higher = stronger binding
Target: ABI1, truncated, D143A, DHFR fusion (Arabidopsis thaliana)
Setting: methotrexate growth selection, single substitutions
Parent: PYL1, truncated, DHFR fusion (Arabidopsis thaliana); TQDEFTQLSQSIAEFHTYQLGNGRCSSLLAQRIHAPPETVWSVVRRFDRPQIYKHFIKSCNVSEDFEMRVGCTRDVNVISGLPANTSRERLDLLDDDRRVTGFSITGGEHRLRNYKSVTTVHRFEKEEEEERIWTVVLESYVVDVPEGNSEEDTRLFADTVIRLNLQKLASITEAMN
Variant | relative binding score [%]
S140D | -5.33
K168I | 87.8
L166F | 69.4
K116I | 57.1
Y18H | 102
E109S | 109
V40I | 94.8
T17P | 80.9
H55S | 106
I52F | 104
R24Y | 91.3
D92S | 85.6
S27C | 86.4
S9D | 107
E128Y | 97.8
G148F | 86.5
L91W | 67.9

Study 4 — target: CREM, bZIP domain (human); technique: DHFR protein complementation; medium: yeast; baseline: wild-type JUN-FOS pair; direction: higher = stronger binding
Setting: single substitutions, most at no-binding floor
Parent: JUN, bZIP domain (human); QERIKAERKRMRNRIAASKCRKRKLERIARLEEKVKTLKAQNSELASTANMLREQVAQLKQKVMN; partner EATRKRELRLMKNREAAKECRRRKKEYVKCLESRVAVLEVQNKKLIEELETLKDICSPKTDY
Variant | binding fitness [natural log]
T37K | -1.24
V35F | -1.42
I28H | -1.39
L38R | -1.52
S47Y | -1.54
A57R | -1.5
M51L | -1.47
V35P | -1.53
Q55R | -1.44
S47G | -1.45
L38V | -1.51
L38P | -1.53
S47F | -1.44
A49F | -1.2
T37D | -1.34
L45F | -1.42
R30L | -1.13
E32W | -1.52
T48C | -1.49
S47R | -1.4
Q41P | -1.54
L52H | -1.54
R53Q | -1.52
R30H | -1.36

Some of these lines once more (study 2):
Variant | normalised enrichment score
L7P | 0.788
R5F | 0.199
D11V | 3.84
R5K F8L | 0.0644
S2A | 4.09
P12V | 3.98
R6D | -0.419
R6L | 0.71
